Measurements pooled from the literature.
Each numbered part is a random draw from the data of one study; scales do not carry over between parts. “And” joins repeats or separate records; there may be more than shown.
UniProt P10721, sequence (whole entry, unmodified, looked up): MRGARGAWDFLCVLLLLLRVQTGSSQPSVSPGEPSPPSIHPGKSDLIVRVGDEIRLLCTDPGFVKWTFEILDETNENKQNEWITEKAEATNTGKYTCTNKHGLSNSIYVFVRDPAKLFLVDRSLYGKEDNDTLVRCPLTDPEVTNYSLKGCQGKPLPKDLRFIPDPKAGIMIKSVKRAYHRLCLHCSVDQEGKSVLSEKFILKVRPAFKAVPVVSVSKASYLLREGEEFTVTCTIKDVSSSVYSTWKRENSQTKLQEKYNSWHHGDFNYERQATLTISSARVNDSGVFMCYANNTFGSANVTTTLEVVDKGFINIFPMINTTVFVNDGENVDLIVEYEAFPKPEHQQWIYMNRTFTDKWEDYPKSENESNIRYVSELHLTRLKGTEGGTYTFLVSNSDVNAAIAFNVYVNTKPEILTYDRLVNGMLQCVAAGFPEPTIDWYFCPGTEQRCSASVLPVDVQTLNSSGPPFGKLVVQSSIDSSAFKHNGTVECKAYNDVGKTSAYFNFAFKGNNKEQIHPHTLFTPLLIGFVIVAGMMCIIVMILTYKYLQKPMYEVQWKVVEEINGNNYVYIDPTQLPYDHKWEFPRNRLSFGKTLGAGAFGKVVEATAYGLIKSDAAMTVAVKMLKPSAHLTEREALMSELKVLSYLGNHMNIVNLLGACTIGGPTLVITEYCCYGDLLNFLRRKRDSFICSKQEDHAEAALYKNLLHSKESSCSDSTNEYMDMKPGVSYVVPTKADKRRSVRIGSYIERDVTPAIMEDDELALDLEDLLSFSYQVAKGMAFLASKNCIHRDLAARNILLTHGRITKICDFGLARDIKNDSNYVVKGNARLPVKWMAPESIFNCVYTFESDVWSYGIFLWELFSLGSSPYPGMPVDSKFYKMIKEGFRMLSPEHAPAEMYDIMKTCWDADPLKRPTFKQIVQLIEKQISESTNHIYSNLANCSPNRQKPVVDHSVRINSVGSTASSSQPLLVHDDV
UniProt Q13177, sequence (whole entry, looked up): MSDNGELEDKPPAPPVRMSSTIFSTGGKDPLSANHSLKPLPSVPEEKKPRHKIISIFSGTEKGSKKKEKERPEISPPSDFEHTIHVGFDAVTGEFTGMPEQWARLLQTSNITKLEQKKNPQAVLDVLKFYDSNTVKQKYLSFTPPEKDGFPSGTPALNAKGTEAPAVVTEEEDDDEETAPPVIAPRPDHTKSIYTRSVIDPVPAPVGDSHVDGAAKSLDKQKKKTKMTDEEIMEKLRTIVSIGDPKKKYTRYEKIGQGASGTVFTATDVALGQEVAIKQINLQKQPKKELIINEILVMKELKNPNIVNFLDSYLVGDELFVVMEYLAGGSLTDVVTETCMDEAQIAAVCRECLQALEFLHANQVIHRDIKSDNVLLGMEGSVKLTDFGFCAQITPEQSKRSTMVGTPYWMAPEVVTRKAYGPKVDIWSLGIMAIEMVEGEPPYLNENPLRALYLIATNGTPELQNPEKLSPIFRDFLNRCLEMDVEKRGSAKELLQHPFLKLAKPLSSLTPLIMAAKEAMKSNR
UniProt P42336, sequence (whole entry, unmodified, looked up): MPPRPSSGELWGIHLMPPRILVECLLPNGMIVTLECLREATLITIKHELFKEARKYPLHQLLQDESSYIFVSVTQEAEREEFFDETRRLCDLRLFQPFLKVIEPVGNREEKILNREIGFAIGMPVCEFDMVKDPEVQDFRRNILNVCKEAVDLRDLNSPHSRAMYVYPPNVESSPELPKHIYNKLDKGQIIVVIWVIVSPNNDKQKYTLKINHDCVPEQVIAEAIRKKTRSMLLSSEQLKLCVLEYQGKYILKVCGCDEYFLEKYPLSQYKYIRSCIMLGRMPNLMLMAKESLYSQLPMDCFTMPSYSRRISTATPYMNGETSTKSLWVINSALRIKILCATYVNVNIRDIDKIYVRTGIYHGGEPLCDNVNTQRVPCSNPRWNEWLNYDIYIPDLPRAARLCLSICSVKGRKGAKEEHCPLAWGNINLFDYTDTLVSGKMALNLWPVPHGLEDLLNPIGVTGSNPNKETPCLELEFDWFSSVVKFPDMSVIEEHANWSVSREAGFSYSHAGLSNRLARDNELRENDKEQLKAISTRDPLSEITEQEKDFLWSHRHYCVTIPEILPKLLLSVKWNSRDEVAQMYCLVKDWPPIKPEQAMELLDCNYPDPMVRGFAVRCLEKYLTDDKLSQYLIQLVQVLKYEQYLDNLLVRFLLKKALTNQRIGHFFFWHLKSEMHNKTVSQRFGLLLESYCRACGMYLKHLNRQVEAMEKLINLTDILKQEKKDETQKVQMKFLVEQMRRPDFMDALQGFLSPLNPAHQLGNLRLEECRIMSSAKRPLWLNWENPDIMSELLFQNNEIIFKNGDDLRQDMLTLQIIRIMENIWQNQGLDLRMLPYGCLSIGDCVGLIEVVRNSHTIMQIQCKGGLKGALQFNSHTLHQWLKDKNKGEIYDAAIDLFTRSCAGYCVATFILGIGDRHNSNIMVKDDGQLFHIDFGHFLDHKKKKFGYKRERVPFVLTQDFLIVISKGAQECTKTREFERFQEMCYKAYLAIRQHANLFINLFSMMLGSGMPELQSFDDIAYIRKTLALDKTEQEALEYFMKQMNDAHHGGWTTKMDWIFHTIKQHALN
UniProt Q86Z02, sequence (whole entry, looked up): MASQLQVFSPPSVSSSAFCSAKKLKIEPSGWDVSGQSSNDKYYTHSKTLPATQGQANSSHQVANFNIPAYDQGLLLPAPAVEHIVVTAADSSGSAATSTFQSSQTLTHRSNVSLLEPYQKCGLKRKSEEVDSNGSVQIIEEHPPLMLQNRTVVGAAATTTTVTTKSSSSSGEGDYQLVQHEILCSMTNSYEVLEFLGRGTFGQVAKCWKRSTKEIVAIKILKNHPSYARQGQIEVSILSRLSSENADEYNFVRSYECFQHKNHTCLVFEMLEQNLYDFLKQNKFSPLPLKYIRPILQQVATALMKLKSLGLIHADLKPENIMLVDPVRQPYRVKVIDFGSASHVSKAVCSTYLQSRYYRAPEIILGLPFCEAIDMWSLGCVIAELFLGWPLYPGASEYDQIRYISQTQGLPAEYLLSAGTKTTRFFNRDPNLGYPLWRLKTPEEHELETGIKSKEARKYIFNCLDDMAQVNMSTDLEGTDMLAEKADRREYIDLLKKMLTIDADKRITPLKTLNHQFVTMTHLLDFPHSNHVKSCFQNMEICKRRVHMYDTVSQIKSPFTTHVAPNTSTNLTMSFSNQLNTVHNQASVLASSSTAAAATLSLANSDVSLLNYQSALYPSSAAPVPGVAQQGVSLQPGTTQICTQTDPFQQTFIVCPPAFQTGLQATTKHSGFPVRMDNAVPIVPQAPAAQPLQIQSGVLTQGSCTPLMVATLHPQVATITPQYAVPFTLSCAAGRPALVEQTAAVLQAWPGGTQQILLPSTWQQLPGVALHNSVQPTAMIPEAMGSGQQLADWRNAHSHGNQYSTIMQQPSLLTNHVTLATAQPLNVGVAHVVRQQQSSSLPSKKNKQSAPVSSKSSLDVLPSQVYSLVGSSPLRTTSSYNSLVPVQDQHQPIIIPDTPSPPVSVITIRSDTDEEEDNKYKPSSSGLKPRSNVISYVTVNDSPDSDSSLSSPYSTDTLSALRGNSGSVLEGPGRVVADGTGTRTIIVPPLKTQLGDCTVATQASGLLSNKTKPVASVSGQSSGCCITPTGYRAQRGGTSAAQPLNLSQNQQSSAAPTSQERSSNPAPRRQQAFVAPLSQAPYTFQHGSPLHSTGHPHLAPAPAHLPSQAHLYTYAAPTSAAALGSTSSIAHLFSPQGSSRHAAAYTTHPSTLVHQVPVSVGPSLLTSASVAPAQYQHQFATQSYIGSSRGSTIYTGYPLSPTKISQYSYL

Block 1 — read-out: cell-free assay; method: competition with immobilised ligand; tested at: 1 µM
SMILES: CN(c1ccnc(CNc2nc(Nc3ccc4c(c3)CC(=O)N4)ncc2C(F)(F)F)n1)S(C)(=O)=O
The remaining binding was 45% (Homeodomain-interacting protein kinase 1 (HIPK1, Homo sapiens, UniProt Q86Z02)).
For Mast/stem cell growth factor receptor Kit (KIT, Homo sapiens, UniProt P10721): remaining binding read 85%.
Homeodomain-interacting protein kinase 2 (HIPK2, Homo sapiens, UniProt Q9H2X6) — remaining binding: 54%.
The remaining binding was 42% (Serine/threonine-protein kinase LATS2 (LATS2, Homo sapiens, UniProt Q9NRM7)).
For Phosphatidylinositol 4,5-bisphosphate 3-kinase catalytic subunit alpha isoform (PIK3CA, Homo sapiens, UniProt P42336, H1047Y): remaining binding read 85%.
Mast/stem cell growth factor receptor Kit (KIT, Homo sapiens, UniProt P10721, A829P) — remaining binding: 46%.
Serine/threonine-protein kinase N1 (PKN1, Homo sapiens, UniProt Q16512) — remaining binding: 43%.
Serine/threonine-protein kinase Sgk3 (SGK3, Homo sapiens, UniProt Q96BR1) — remaining binding: 87%.
For TRAF2 and NCK-interacting protein kinase (TNIK, Homo sapiens, UniProt Q9UKE5): remaining binding read 77%.
The remaining binding was 82% (Ephrin type-A receptor 5 (EPHA5, Homo sapiens, UniProt P54756)).
For Mast/stem cell growth factor receptor Kit (KIT, Homo sapiens, UniProt P10721, V559D/V654A): remaining binding read 67%.
Serine/threonine-protein kinase PAK 2 (PAK2, Homo sapiens, UniProt Q13177) — remaining binding: 83%.
For Hepatocyte growth factor receptor (MET, Homo sapiens, UniProt P08581): remaining binding read 14%.

Block 2 — read-out: enzyme activity; action: inhibitor; tested at: 0.5 µM; baseline: control
Target: Muscle, skeletal receptor tyrosine-protein kinase (MUSK, Homo sapiens, UniProt O15146)
UniProt O15146, sequence (whole entry, looked up): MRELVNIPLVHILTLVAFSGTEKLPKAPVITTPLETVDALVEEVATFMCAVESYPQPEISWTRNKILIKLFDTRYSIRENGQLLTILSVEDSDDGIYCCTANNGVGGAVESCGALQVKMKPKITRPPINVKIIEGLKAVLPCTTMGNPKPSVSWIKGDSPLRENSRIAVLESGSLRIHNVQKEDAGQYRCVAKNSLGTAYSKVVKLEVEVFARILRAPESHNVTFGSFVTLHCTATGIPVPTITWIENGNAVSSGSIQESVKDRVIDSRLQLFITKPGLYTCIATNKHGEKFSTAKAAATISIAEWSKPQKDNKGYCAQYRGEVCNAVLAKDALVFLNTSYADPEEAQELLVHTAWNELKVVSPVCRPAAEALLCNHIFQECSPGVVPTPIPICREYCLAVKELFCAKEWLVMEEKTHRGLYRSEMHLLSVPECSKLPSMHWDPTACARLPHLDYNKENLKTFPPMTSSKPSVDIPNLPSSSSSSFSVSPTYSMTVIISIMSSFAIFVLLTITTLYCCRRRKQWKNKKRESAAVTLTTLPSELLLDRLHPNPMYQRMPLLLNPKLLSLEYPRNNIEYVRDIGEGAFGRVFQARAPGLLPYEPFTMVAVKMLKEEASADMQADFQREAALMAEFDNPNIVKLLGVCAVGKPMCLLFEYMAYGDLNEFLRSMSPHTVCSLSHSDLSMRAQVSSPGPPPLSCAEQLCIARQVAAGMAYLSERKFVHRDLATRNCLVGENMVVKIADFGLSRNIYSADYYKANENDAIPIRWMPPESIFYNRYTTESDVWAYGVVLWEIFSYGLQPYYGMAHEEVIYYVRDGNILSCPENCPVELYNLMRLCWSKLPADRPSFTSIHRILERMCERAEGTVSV
The remaining activity of `CCN(CC)CCNC(=O)c1c(C)[nH]c(/C=C2\C(=O)Nc3ccc(F)cc32)c1C` is reported as 51.3%.
The remaining activity of `O=C1c2ccccc2-c2n[nH]c3cccc1c23` is reported as 62.2%.
`C[C@@H]1CCN(C(=O)CC#N)C[C@@H]1N(C)c1ncnc2[nH]ccc12` has a remaining activity of 103%.
The remaining activity of `N#C/C(=C\c1ccc(O)c(O)c1)C(=O)NCc1ccccc1` is reported as 97.9%.
The remaining activity of `c1ccc(-c2[nH]ncc2-c2ccnc3ccccc23)nc1` is reported as 93.4%.
For `Cn1nc2c3c(cccc31)C(=O)c1ccccc1-2`, the remaining activity was 88.4%.

Block 3 — target: UBE2V2 UBC core domain (UniProt Q15819); method: yeast two-hybrid; medium: yeast; setting: mostly zero background; baseline: not given; direction: higher = stronger interaction
B1: TRIM35 RING domain (UniProt Q9UPQ4); chain PSRSFKEELLCAVCYDPFRDAVTLRCGHNFCRGCVSRCWEVQVSPTCPVCKDRASPADLRT
B2: TRIM38 RING domain (UniProt O00635); chain STKKMMEEATCSICLSLMTNPVSINCGHSYCHLCITDFFKNPSQKQLRQETFCCPQCRAPFHMDSLRP
B3: RFPL2 RING domain (UniProt O75678); chain MAALFQEASSCPVCSDYLEKPMSLECGCAVCLKCINSLQKEPHGEDLLCCCSSMVSRKNKIRR
B4: RNF175 RING domain (UniProt Q8N4F7); chain LPTRSLSDNICAVCGQKIIVELDEEGLIENTYQLSCNHVFHEFCIRGWCIVGKKQTCPYCKEKVDLKRMIS
B5: RNF14 RING domain (UniProt Q9UBS8); chain IKCFNSKLFLCSICFCEKLGSECMYFLECRHVYCKACLKDYFEIQIRDGQVQCLNCPEPKCPSVATPGQVK
B6: RNF5 RING domain (UniProt Q99942); chain ERGGAGATFECNICLETAREAVVSVCGHLYCWPCLHQWLETRPERQECPVCKAGISREKVVP
B7: TRIM52 RING domain (UniProt Q96A61); chain PMQTLQEEAVCAICLDYFKDPVSISCGHNFCRGCVTQLWSKEDEEDQNEEEDEWEEEEDEEAV
Residues (chain): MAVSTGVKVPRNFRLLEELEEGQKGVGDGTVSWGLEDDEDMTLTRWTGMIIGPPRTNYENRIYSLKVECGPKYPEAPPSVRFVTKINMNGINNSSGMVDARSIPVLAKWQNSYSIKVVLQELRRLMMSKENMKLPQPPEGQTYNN
Under “lacZ reporter activity”, `B1 (TRIM35 RING domain)` is recorded as 0.
Under “lacZ reporter activity”, `B2 (TRIM38 RING domain)` is recorded as 0.
Under “lacZ reporter activity”, `B3 (RFPL2 RING domain)` is recorded as 0.
Under “lacZ reporter activity”, `B4 (RNF175 RING domain)` is recorded as 0.
`B5 (RNF14 RING domain)` — result for “lacZ reporter activity”: 0.
`FLKKLEQSFMCVCCQELVYQPVTTECFHNVCKDCLQRSFKAQVFSCPACRHDLGQNYIMI (UHRF2 RING domain (UniProt Q96PU4))` — result for “lacZ reporter activity”: 0.
`B6 (RNF5 RING domain)` — result for “lacZ reporter activity”: 0.
`B7 (TRIM52 RING domain)`: “lacZ reporter activity” 0.

Further values, each from its own experiment
`COCc1cc(C(=O)Nc2cc([C@H]3CC[C@@H](OC(=O)NC(C)C)C3)[nH]n2)n(C)n1` gave a cell count of 0.681 and 0.518 and 0.412 (NCI-H1048; Vi-Cell; 125 nM, 6 d; baseline: DMSO).
The logD of `CCC[C@@H]1NC(=O)CSC[C@@H](C(=O)OCC)N(C)C(=O)[C@H](CC(C)C)NC(=O)[C@@H](C)N(C)C(=O)[C@@H](CC(C)C)NC(=O)[C@H](C)N(C)C(=O)[C@H]2CCCN2C(=O)[C@H](CC(C)C)NC(=O)CN(C)C1=O` is reported as -0.184 (hydrocarbon/water).

Some of these lines once more (block 3):
`FLKKLEQSFMCVCCQELVYQPVTTECFHNVCKDCLQRSFKAQVFSCPACRHDLGQNYIMI (UHRF2 RING domain (UniProt Q96PU4))` — result for “lacZ reporter activity”: 0.
Under “lacZ reporter activity”, `B2 (TRIM38 RING domain)` is recorded as 0.
